Assay results collected from several papers.
Compare with care: the assays were run in different laboratories. “And” joins repeats or separate records; there may be more than shown. ± gives the spread as reported. Values after ≈ are worked out from the molar mass of the structure shown.

`CN(C(=O)c1ccn2ncc(-c3ccc(C(N)=O)cc3)c2c1)c1ccc(C#N)cn1`: “faecal Nluc luminescence” 1670 a.u. and 169 a.u. and 601 a.u. and 96 a.u. and 2760 a.u. (Cryptosporidium parvum; UGA1 Nluc, IFN-gamma knockout C57BL/6 mice, faeces; oral, 10 mg/kg daily, 96 h post infection, treatment days 3-9; higher means more parasites).
For `C=CCN1C(=O)C(CC=C)(C(=O)OCC)Oc2cc(F)ccc21` (stereo not drawn), the inhibition was greater than 90% (Arabidopsis thaliana; seed germination; Col-0; concentration not given).
`FC(F)(F)c1cccc(CNc2nc(NC3CCN(Cc4ccccc4)CC3)c3nc[nH]c3n2)c1` has a fold change of 2.38 (Cryptococcus neoformans; mRNA level, RNA-seq, item: ARG1 CNAG_06500; 48 µg/mL, 3 h; reference: untreated).
`CN1CCN(S(=O)(=O)c2ccc(-c3ccc4ncnc(Nc5ccc(OCc6ccccc6)c(Cl)c5)c4c3)cc2)CC1` has an EC50 of 51 nM (Plasmodium falciparum; parasite growth, SYBR Green fluorescence; W2, drug-resistant).
`[O-][N+]1=C(c2ccccc2)C2=NCCN2c2ccccc21` has an MIC90 of 0.125 µg/mL (Fusobacterium nucleatum).
With `Cc1cc(-c2ccc3ncnc(Nc4ccc(OCc5cccc(F)c5)c(Cl)c4)c3c2)cnc1N1CCOCC1` the EC50 was 540 nM (Plasmodium falciparum; parasite growth, SYBR Green fluorescence; W2, drug-resistant).
With `Cc1ccc2c(c1)OC(C)(C)[C@@H]1C[C@H]3CN(C(=O)[C@H](Cc4c[nH]c5ccccc45)NC(=O)OC(C)(C)C)CC[C@H]3O[C@@H]21` the IC50 was 15700 nM (HIV-1 subtype C; viral replication; 96 h).
For `CCCCCCCC(=O)NCCCC[C@H](NC(=O)CCCCCCC)C(=O)N[C@@H](CCCCNC(=O)CCCCCCC)C(=O)NCC(=O)NCC(=O)NCC(=O)N[C@@H](CS)C(=O)N[C@@H](CCCNC(=N)N)C(=O)N[C@@H](CCCCN)C(=O)N1CCC[C@H]1C(=O)N[C@@H](CS)C(=O)N[C@@H](CCCNC(=N)N)C(=O)N[C@@H](CCCCN)C(=O)N1CCC[C@H]1C(=O)N[C@@H](CS)C(=O)N[C@@H](CCCNC(=N)N)C(=O)N[C@@H](CCCCN)C(=O)N1CCC[C@H]1C(=O)N[C@@H](CS)C(=O)N[C@@H](CCCNC(=N)N)C(=O)N[C@@H](CCCCN)C(=O)N1CCC[C@H]1C(N)=O`, the MIC was 16 µM (≈ 44.2 µg/mL) (Candida albicans; broth microdilution; fluconazole-resistant 56214, RPMI-1640; 48 h, 30 °C).
Under “lipid fluorescence reduction”, `CC(C)C[C@H](NC(=O)[C@H](CC(C)C)NC(=O)[C@H](CCCCN)NC(=O)[C@H](Cc1ccccc1)NC(=O)[C@@H](NC(=O)[C@H](CCCNC(=N)N)NC(=O)[C@@H](N)CCCCN)C(C)C)C(=O)N[C@@H](CCCCN)C(=O)N[C@@H](CCCNC(=N)N)C(=O)N[C@@H](Cc1ccc(O)cc1)C(=O)N[C@@H](Cc1c[nH]c2ccccc12)C(=O)N[C@@H](CCCNC(=N)N)C(=O)N[C@@H](CCC(N)=O)C(=O)N[C@@H](CC(C)C)C(=O)N[C@@H](CCCCN)C(=O)N[C@@H](CCCCN)C(=O)N1CCC[C@H]1C(=O)N[C@H](C(=O)N[C@@H](CCCNC(=N)N)C(=O)NCCOCCOCC(=O)O)C(C)C` is recorded as 87% (Pseudomonas aeruginosa and Staphylococcus aureus; confocal microscopy; mixed biofilm; 10 µM, 6 h, biofilm, pre-formed, 24 h).
For `CCOC(=O)C1(Cc2ccccc2)Oc2cc(F)ccc2N(Cc2ccccc2)C1=O` (stereo not drawn), “stem length inhibition” read 47.2% (Arabidopsis thaliana; Col-0, seed germination, dark; 200 µg/mL, 7 days, 22 °C).
The median survival of `C[C@H]1[C@@H](OCc2cn(-c3cc4ccc(O)cc4oc3=O)nn2)O[C@@H]2O[C@@]3(C)CC[C@H]4[C@H](C)CC[C@@H]1[C@@]24OO3` is reported as 32 days (Plasmodium berghei; NK65/GFP, infected mice; oral gavage, 65 µmol/kg once daily, 96 h dosing period).
With `CC(=O)c1c(O)c(C)c(O)c2c1OC1=CC(=O)C(=C(C)NCCCC(=O)OC3OC4OC5(C)CCC6C(C)CCC(C3C)C46OO5)C(=O)C12C` (stereo not drawn) the parasitaemia inhibition was 99.8% (Plasmodium berghei; ANKA GFP, NMRI mouse; oral, 4 x 10 mg/kg, day 4 post infection).
`O=CCNCCOn1c(=O)n(OCCNCCO)c(=O)n(OCCNCCOn2c(=O)n(OCCNCCO)c(=O)n(OCCNCCO)c2=O)c1=O` has an MLC of 2 µg/mL (≈ 2.6 µM) (Bacillus subtilis; broth microdilution).
`C[C@H](NC(=O)[C@@H](O)c1cc(F)cc(F)c1)C(=O)N[C@@H]1C(=O)N(C)c2ccccc2-c2ccccc21` has an inhibition of -10.5% (dengue virus 2; viral infection, luciferase reporter virus; 0.3 nM, 48 h).
`O=S(=O)(c1ccc(-c2ccc3ncnc(Nc4ccc(OCc5cccc(Br)c5)c(Cl)c4)c3c2)cc1)N1CCOCC1` gave an EC50 of 200 nM (Plasmodium falciparum; parasite growth, SYBR Green; D6; blood stage).
With `CC(=O)c1c(O)c(C)c(O)c2c1OC1=CC(=O)C(=C(C)NCCCCOC3OC4OC5(C)CCC6C(C)CCC(C3C)C46OO5)C(=O)C12C` (mixture of isomers) the parasitaemia inhibition was 99.8% (Plasmodium berghei; ANKA GFP, NMRI mouse; oral, 4 x 100 mg/kg, day 4 post infection).
`Fc1cccc(COc2ccc(Nc3ncnc4ccc(-c5ccccc5)cc34)cc2Cl)c1` has an EC50 of 790 nM (Plasmodium falciparum; parasite growth, SYBR Green; D6; blood stage).
`CC[C@H](C)CCCCC(=O)N[C@@H](CCN)C(=O)N[C@H](C(=O)N[C@@H](CCN)C(=O)N[C@H]1CCNC(=O)[C@H]([C@@H](C)O)NC(=O)[C@H](CCN)NC(=O)[C@H](CCN)NC(=O)[C@H](CC(C)C)NC(=O)[C@@H](CC(C)C)NC(=O)[C@H](CCN)NC1=O)[C@@H](C)O` — result for “MIC fold change”: 0.789 (Escherichia coli; daily serial passaging; ATCC 8739; highest sub-MIC, 36 days; reference: initial MIC).
`CCOC(=O)C1(Cc2ccccc2)Oc2cc(OC)ccc2N(Cc2ccccc2)C1=O` (stereo not drawn) gave an inhibition of 58.5% (Arabidopsis thaliana; root length, petri dish germination; Col-0, 1/2 MS medium; 200 µg/mL, 7 days, 22 °C, dark).
For `Cc1ccc(N2CC3CC(C2)N3C)cc1C(=O)NC1(c2ccc3c4c(cccc24)C(=O)N3C)CC1`, the inhibition was 79% (Betacoronavirus 1; viral replication; Huh-7, OC43; 50 µM).
`Clc1cc(Nc2ncnc3ccc(-c4cccc(N5CCOCC5)c4)cc23)ccc1OCc1ccccc1` gave an EC50 of 1700 nM (Plasmodium falciparum; parasite growth, SYBR Green fluorescence; W2, drug-resistant).
`CC(C)[C@H]1NC(=O)[C@H](Cc2ccccc2)NC(=O)[C@@H](C(C)C)NC(=O)[C@@H](C)NC(=O)[C@H](C)NC(=O)[C@@H](Cc2c(-c3ccc(-c4ccc5ccccc5c4)cc3)[nH]c3ccccc23)NC(=O)[C@@H](C)NC1=O` gave an MIC90 of greater than 50 µM (Candida albicans; broth dilution).
The EC50 of `O=S(=O)(c1ccc(-c2ccc3ncnc(Nc4ccc(OCc5ccccc5F)c(Cl)c4)c3c2)cc1)N1CCOCC1` is reported as 130 nM (Plasmodium falciparum; parasite growth, SYBR Green; D6; blood stage).
For `CSCC[C@H]1NC(=O)[C@H](Cc2ccccc2)NC(=O)[C@H](NC(=O)[C@@H](N)CCCCN)CSC(=O)[C@H](C(C)C)NC(=O)[C@H](Cc2ccccc2)NC1=O`, “biofilm formation reduction” read 90% (Listeria monocytogenes; crystal violet; EGD-e; 100 µM, 24 h, room temperature; reference: vehicle).
`CC(C)(C)OCc1ccc(-c2ccc3ncnc(Nc4ccc(OCc5cccc(F)c5)c(Cl)c4)c3c2)cc1` gave an EC50 of 690 nM (Plasmodium falciparum; parasite growth, SYBR Green fluorescence; C235 (TM91C235), drug-resistant).
For `C#CCN1C(=O)C(CC#C)(C(=O)OCC)Oc2ccccc21` (stereo not drawn), “stem length inhibition” read 100% (Arabidopsis thaliana; Col-0, seed germination, dark; 50 µg/mL, 7 days, 22 °C).
For `COc1ccc(C2=[N+]([O-])c3ccccc3N3CC(C)(C)CN=C23)cc1`, the MIC90 was 0.25 µg/mL (Fusobacterium nucleatum).
For `CN(C)c1nc(NCc2cc(Cl)c(F)cc2F)c(/N=N/c2ccc(Cl)cc2)c(N(C)C)n1`, the mortality was 46.7 ± 5.8% (Plutella xylostella; leaf dipping; 200 mg/L, 96 h).
For `CCOC(=O)C1(Cc2ccc(-c3ccccc3)cc2)Oc2cc(F)ccc2N(Cc2ccc(-c3ccccc3)cc2)C1=O` (stereo not drawn), the inhibition was 45% (Arabidopsis thaliana; stem length, petri dish germination; Col-0, 1/2 MS medium; 200 µg/mL, 7 days, 22 °C, dark).
`NCCO.O=C(O)C(Cl)Cl` has a herbicidal inhibition of 0% (Xanthium sibiricum; 15 mg/mL, 21 days, post-emergence, greenhouse).
`CCOC(=O)C1(Cc2ccccc2C#N)Oc2cc(F)ccc2N(Cc2ccccc2C#N)C1=O` (stereo not drawn) gave an inhibition of 31.7% (Arabidopsis thaliana; root length, petri dish germination; Col-0, 1/2 MS medium; 50 µg/mL, 7 days, 22 °C, dark).
The MIC of `CCCCCCCC(=O)NCCCC[C@H](NC(=O)CCCCCCC)C(=O)N[C@@H](CCCCNC(=O)CCCCCCC)C(=O)NCC(=O)NCC(=O)NCC(=O)N[C@@H](CS)C(=O)N[C@@H](CCCNC(=N)N)C(=O)N[C@@H](CCCCN)C(=O)N1CCC[C@H]1C(N)=O` is reported as greater than 128 µM (Candida albicans; broth microdilution; SP 3902, RPMI-1640; 48 h, 30 °C).
With `CCc1nn(C)c2nc(-c3ccc(C(=O)O)cc3)nc(NCc3ccccc3)c12` the parasite number was 29.1% and 33.3% and 30.2% and 34.8% (Cryptosporidium parvum; HCT-8; 12 x EC90, 48 h; reference: DMSO control).
`Cc1cc(C(=O)Nc2nc3cccc(C)c3n2[C@H]2CCCCN(C(=O)/C=C/CN(C)C)C2)ccn1` gave a parasite density of 1e+06 parasites/mL and 900000 parasites/mL and 800000 parasites/mL (Trypanosoma brucei; 2T1 CLK1 over-expression uninduced; concentration not given).
`CN(C)S(=O)(=O)c1ccc(S(=O)(=O)N2CCC(n3c(=O)[nH]c4ccccc43)CC2)cc1`: “lung bacterial load” 5.53 log10 CFU/g and 5.41 log10 CFU/g and 5.58 log10 CFU/g and 5.05 log10 CFU/g and 5.52 log10 CFU/g (Klebsiella pneumoniae; ∆mfd, mouse, intranasal infection, lung; intraperitoneal, 6 mg/kg, 24 h, nanoformulation).
For `CCOC(=O)C1(CC=C(C)C)Oc2cc(F)ccc2N(CC=C(C)C)C1=O` (stereo not drawn), the inhibition was 30.3% (Arabidopsis thaliana; stem length, petri dish germination; Col-0, 1/2 MS medium; 50 µg/mL, 7 days, 22 °C, dark).
The EC50 of `CCCCCOc1ccc(-c2ccc3ncnc(Nc4ccc(OCc5cccc(F)c5)c(Cl)c4)c3c2)c(F)c1F` is reported as greater than 15000 nM (Plasmodium falciparum; parasite growth, SYBR Green fluorescence; W2, drug-resistant).
For `CCOC(=O)C1(Cc2ccc([N+](=O)[O-])cc2)Oc2cc(F)ccc2N(Cc2ccc([N+](=O)[O-])cc2)C1=O` (stereo not drawn), the inhibition was 60.6% (Arabidopsis thaliana; stem length, petri dish germination; Col-0, 1/2 MS medium; 200 µg/mL, 7 days, 22 °C, dark).
`O=C1NC2(CC2)COc2ncc(F)cc2[C@H]2COCCN2c2ccn3ncc1c3n2` — result for “organ-to-body weight ratio”: 0.156 ± 0.026% (Sprague-Dawley rat, male, thymus; oral, 5 mg/kg/day, 4 weeks, end of treatment).

Some of these lines once more:
The EC50 of `CCCCCOc1ccc(-c2ccc3ncnc(Nc4ccc(OCc5cccc(F)c5)c(Cl)c4)c3c2)c(F)c1F` is reported as greater than 15000 nM (Plasmodium falciparum; parasite growth, SYBR Green fluorescence; W2, drug-resistant).
For `CCOC(=O)C1(Cc2ccccc2)Oc2cc(F)ccc2N(Cc2ccccc2)C1=O` (stereo not drawn), “stem length inhibition” read 47.2% (Arabidopsis thaliana; Col-0, seed germination, dark; 200 µg/mL, 7 days, 22 °C).
`CN1CCN(S(=O)(=O)c2ccc(-c3ccc4ncnc(Nc5ccc(OCc6ccccc6)c(Cl)c5)c4c3)cc2)CC1` has an EC50 of 51 nM (Plasmodium falciparum; parasite growth, SYBR Green fluorescence; W2, drug-resistant).
`Fc1cccc(COc2ccc(Nc3ncnc4ccc(-c5ccccc5)cc34)cc2Cl)c1` has an EC50 of 790 nM (Plasmodium falciparum; parasite growth, SYBR Green; D6; blood stage).
For `CCOC(=O)C1(Cc2ccc(-c3ccccc3)cc2)Oc2cc(F)ccc2N(Cc2ccc(-c3ccccc3)cc2)C1=O` (stereo not drawn), the inhibition was 45% (Arabidopsis thaliana; stem length, petri dish germination; Col-0, 1/2 MS medium; 200 µg/mL, 7 days, 22 °C, dark).
